Measured values pooled from the literature.
± marks the error that the study gave.

Compound	test	system	setting	how to read	measurement	value
O=C(c1ccc(F)c(F)c1Nc1ccc(I)cc1F)N1CC(O)([C@@H]2CCCCN2)C1		human patients	oral, dose not given, dose escalation, suspension		treatment-related AE causing withdrawal	15%
C[C@@H](NC(=O)N1C(=O)[C@H](Cc2ccnc(N)c2)[C@H]1C(=O)O)C1CCCCC1		healthy Chinese adult volunteers	continuous intravenous infusion, dose not given, 5.0 days, CTCAE 5.0, all doses		urine occult blood positive	7.5%
O=C(Nc1ccccc1)C1CCN(C(=O)Oc2cccnc2)CC1	Bond-Lader VAS	healthy women	100 mg	baseline: pre-dose baseline, direction not given	change in well-coordinated–clumsy score	-18
CC(C)(c1ccccc1)c1cc(-n2nc3ccccc3n2)c(O)c(C(C)(C)c2ccccc2)c1		human aged 21-60 years	concentration not given, sunscreen, 95th percentile		daily dermal exposure dose	1.56 ng/kg/day
CC[C@H](C)CCCCC(=O)N[C@@H](CCN)C(=O)N[C@H](C(=O)N[C@@H](CCN)C(=O)N[C@H]1CCNC(=O)[C@H]([C@@H](C)O)NC(=O)[C@H](CCN)NC(=O)[C@H](CCN)NC(=O)[C@H](CC(C)C)NC(=O)[C@@H](Cc2ccccc2)NC(=O)[C@H](CCN)NC1=O)[C@@H](C)O		critically ill patients, 28-day survivors, plasma	dose not given, median		AUC(0-24 h) at steady state	87200 ng·h/mL
O=C1Nc2cc3[nH]nc(-c4ccncc4)c3cc2CN1Cc1ccccc1	CTCAE v4.03	advanced solid tumour patients	intravenous, 1.8 mg/kg, schedules 1/2		patients with acneiform dermatitis	0%
N#C[C@H](O[C@@H]1O[C@H](CO)[C@@H](O)[C@H](O)[C@H]1O)c1ccccc1		Sprague Dawley rat, plasma	oral, 10 g lyophilized powder/kg, high dose		Tmax	34.8 ± 15.6 min
COc1cc2c(Oc3ccc4[nH]c(C)cc4c3F)ccnc2cc1OCC1(N)CC1		paediatric recurrent refractory sarcoma	8 mg		grade 3 Leukopenia	0%
C=CC(=O)Nc1cc(Nc2nccc(Nc3cc(Cl)c(F)cc3C(C)(C)O)n2)c(OC)cc1N1CC[C@@H](N(C)C)C1		human	oral, dose not given		aspartate aminotransferase increased TEAE	11.8%
CCc1ccc(CC/C=C/c2ccc3c(c2)C(=O)CC3)cc1		Sprague-Dawley rat, male	oral, 450 mg/kg/day, 14 days		AST serum activity	125 U/L
C[C@]1(CO)Cc2ncn(-c3ccc(C#N)c(Cl)c3)c2C(=O)O1		human, Chinese, plasma	60 mg single dose, geometric mean		Cmax	3.56 µM
CN(C(=O)n1cnc(-c2ccc[n+]([O-])c2)c1)C1CCCCC1		Wistar rat, midbrain	oral, 10 mg/kg, 24 h, single dose		concentration	12.8 ± 0.5 ng/g
CO[C@H]1C[C@@H]2CC[C@@H](C)[C@@](O)(O2)C(=O)C(=O)N2CCCC[C@H]2C(=O)O[C@H]([C@H](C)C[C@@H]2CC[C@@H](OC(=O)NCCOCCOCCOCCOCCOCCOCCOCCOCCC(=O)N3CCc4cc(Cn5nc(-c6ccc7oc(N)nc7c6)c6c(N)ncnc65)ccc4C3)[C@H](OC)C2)C[C@@H](O)[C@H](C)/C=C(\C)[C@@H](O)[C@@H](OC)C(=O)[C@H](C)C[C@H](C)/C=C/C=C/C=C/1C		patients with advanced solid tumours	intravenous, dose not given, grade ≥3		incidence of Anemia TEAE	15.8%
Cn1c(-c2ccc(C(N)=O)cc2F)nnc1C(C)(C)Oc1c(F)cc(Cl)cc1F		human	oral, 3 mg, single ascending dose		vessel puncture site pain	0%
